Published values pooled from the literature.
Compare with care: the assays were run in different laboratories. Several values in a cell are separate wells, animals, samples, runs or records. ± gives the spread as reported.

| Substance | target | assay | system | conditions | scale | quantity | result |
| --- | --- | --- | --- | --- | --- | --- | --- |
| O=C(N/N=C/c1cc[n+](Cc2ccccc2)c2ccccc12)c1ccc2ccc(C(=O)N/N=C/c3cc[n+](Cc4ccccc4)c4ccccc34)nc2n1 | telomeric G4 DNA hybrid-2 | FRET melting |  | 1 µM, DNA 0.2 µM |  | ΔTm | 21.3 ± 0.8 °C |
| Nc1ncc2c(n1)-c1c([nH]c3ccc(C4=CCOCC4)cc13)CCC2 | FLT3 ITD F691L | scanMAX |  | 1 µM | reference: control | remaining binding | 91% |
| C=Cc1c(C)c2cc3nc(c(CC(=O)[O-])c4[n-]c(cc5nc(cc1[n-]2)C(C)=C5CC)c(C)c4C(=O)[O-])C(CCC(=O)[O-])C3C.[Cu+2].[Na+].[Na+].[Na+] (centres unmarked) | Nrf2 (mouse) | immunofluorescence | RAW264.7 | 10 µM, 2 h | reference: untreated | phospho-Nrf2 level | increased |
| O=C(N/N=C/c1ccc(C[n+]2ccccc2)cc1)c1cccc(C(=O)N/N=C/c2ccc(C[n+]3ccccc3)cc2)c1 | telomeric G4 DNA hybrid-2 | FRET melting |  | 1 µM, DNA 0.2 µM, together with: duplex DNA competitor 10 µM |  | ΔTm | 3.7 ± 0.6 °C |
| c1ccc(-c2n[nH]cc2-c2ccnc3ccccc23)nc1 | SAK1 (Candida albicans) | kinase binding, MIB/MS competition | Candida albicans lysate | 1 µM | reference: DMSO | log2 fold change | 0.01 |
| NCCOc1cc(NC(=O)c2cc(OCc3cn(Cc4ccc(C(=O)O)cc4)nn3)cc(C(=O)Nc3cc(OCCN)c4ccccc4n3)n2)nc2ccccc12 | c-myc G-quadruplex DNA | FRET melting |  | 1 µM, pH 7.4, together with: 60 mM potassium |  | ΔTm | 5.3 ± 0.5 K |
| CN1CCCNC(=O)c2cccc(c2)C(=O)NCCCN(C)CCCNc2cccc3c2C(=O)c2cccc(c2C3=O)NCCC1 | c-myc G-quadruplex DNA | DNA thermal stabilisation, CD melting |  | 4.5 µM, pH 7.4, together with: 1.5 µM DNA, 5 mM KCl |  | ΔTm | 13.9 ± 2.3 °C |
| C=CC(=O)N1[C@H](c2ccc3c(c2)OCO3)c2[nH]c3ccccc3c2C[C@@H]1C(=O)N1CCN(C)CC1 | human cyclin E1 N112C-3xFLAG:CDK2 | co-IP with TMT proteomics, item: RPS14 |  | concentration not given, P62263 | reference: wild type DMSO | relative co-enrichment | 95% |
| O=S(=O)(NCc1ccncc1)c1ccc(C2CCCCC2)cc1 | PU.1, mouse | reporter gene, inhibitor, luminescence | BV-2 PU.1 luciferase reporter | Asinex batch |  | EC50 | 9 nM |
| C=CC(=O)Nc1cccc(Cn2ncc3cnc(Nc4cnn(CCOC)c4)nc32)c1 | EPHA2 human | binding, KINOMEscan |  | 100 nM | lower = stronger binding | percent of control | 90% |
| C[n+]1cccc2cc(/C=N/NC(=O)N/N=C/c3ccc4c(ccc[n+]4C)c3)ccc21 | telomeric G4 DNA hybrid-2 | FRET melting |  | 1 µM, DNA 0.2 µM |  | ΔTm | 8.9 ± 0.4 °C |
| Cc1ccc(S(=O)(=O)N/N=C/c2ccsc2B(O)O)cc1 | human pancreatic chymotrypsin | enzyme activity, inhibitor |  |  |  | IC50 | > 100000 nM |
| O=C(O)C(Cc1c[nH]cn1)N1C(=O)c2ccc3c4ccc5c6c(ccc(c7ccc(c2c37)C1=O)c64)C(=O)N(CCN1CCCCC1)C5=O (centres unmarked) | telomerase | telomerase activity, inhibitor, TRAP | LNCaP | 48 h |  | IC50 | 8100 ± 400 nM |
| polymyxin B | Escherichia coli lipopolysaccharide | binding, BODIPY-TR cadaverine displacement |  | 1 h, pH 7.4, 37 °C, together with: BODIPY-TR cadaverine 2.5 µM and LPS 50 µg/mL |  | ED50 | 1800 ± 230 nM |
| Nc1ncc(-c2cc(-c3cnn(CC(F)(F)F)c3)ncc2F)nc1C(=O)NC1CNCC(F)C1 (centres unmarked) | IRAK1 | KINOMEscan |  | 1 µM | reference: DMSO control | remaining binding | 100% |
| C[n+]1ccc(/C=N/NC(=O)c2cccc(C(=O)N/N=C/c3cc[n+](C)c4ccccc34)n2)c2ccccc21 | telomeric G4 DNA hybrid-2 | FRET melting |  | 1 µM, DNA 0.2 µM, together with: duplex DNA competitor 10 µM |  | ΔTm | 30.5 ± 1 °C |
| O=C(Nc1cc(OCCN2CCCC2)c2ccccc2n1)c1cccc(C(=O)Nc2cc(OCCN3CCCC3)c3ccccc3n2)n1 | K-ras G-quadruplex DNA | FRET melting |  | 1 µM, pH 7.4, together with: 60 mM potassium |  | ΔTm | 8.4 ± 0.9 K |
| CC(C)(C#N)c1ccc2c(c1)N(C(=O)c1ccc([C@@](C)(O)C(F)(F)F)cc1)Cc1cccnc1N2 | IDH1 R132H | 2-HG production, RapidFire MS | MOG-G-UVW overexpressing IDH1 R132H |  |  | IC50 | 213 nM and 281 nM and 202 nM and 216 nM and 168 nM and 208 nM and 157 nM |
| NCCOc1cc(NC(=O)c2cc(Cl)cc(C(=O)Nc3cc(OCCN)c4ccccc4n3)n2)nc2ccccc12 | c-myc G-quadruplex DNA | FRET melting |  | 1 µM, pH 7.4, together with: 60 mM potassium |  | ΔTm | 16 ± 1 K |
| Cn1ccc2cc(-n3c(=O)[nH]c4sc5c(c4c3=O)CCCC5)ccc21 | rat L-type calcium channel | radioligand binding |  | 10 µM, dihydropyridine site |  | inhibition | -16% |
| O=C(N/N=C/c1ccc2c(ccc[n+]2Cc2ccccc2)c1)c1ccc2ccc(C(=O)N/N=C/c3ccc4c(ccc[n+]4Cc4ccccc4)c3)nc2n1 | telomeric G4 DNA hybrid-2 | FRET melting |  | 1 µM, DNA 0.2 µM |  | ΔTm | 20.5 ± 0.8 °C |
| O=C1c2ccc3c4ccc5c6c(ccc(c7ccc(c2c37)C(=O)N1CCN1CCCCC1)c64)C(=O)N(CCN1CCCCC1)C5=O | telomerase | telomerase activity, inhibitor, TRAP | PC-3 | 48 h |  | IC50 | 11300 ± 200 nM |
| C[n+]1cc(/C=N/NC(=O)c2cccc(C(=O)N/N=C/c3cc4ccccc4[n+](C)c3)n2)cc2ccccc21 | telomeric G4 DNA hybrid-2 | FRET melting |  | 1 µM, DNA 0.2 µM, together with: duplex DNA competitor 10 µM |  | ΔTm | 18 ± 0.9 °C |
| Fc1ccc(Nc2nc(NC3CCCCC3)c3cc(Br)ccc3n2)cc1F | β2AR/β1AR TM6 chimera | β-arrestin2 recruitment, antagonist, BRET |  | together with: isoprenaline 1 µM |  | pIC50 | 6.4 |
| O=C(CCCCCCc1ccccc1)c1ncc(-c2ccc(CBr)cn2)o1 | serine hydrolases (mouse) | competitive ABPP | mouse brain membrane proteome |  |  | off-target inhibition concentration | 100 µM |
| C[n+]1cccc2cc(/C=N/NC(=O)c3ccc4ccc(C(=O)N/N=C/c5ccc6c(ccc[n+]6C)c5)nc4n3)ccc21 | telomeric G4 DNA hybrid-2 | FRET melting |  | 1 µM, DNA 0.2 µM, together with: duplex DNA competitor 10 µM |  | ΔTm | 16.3 ± 1.9 °C |
| NCCCn1cc(COc2cc(C(=O)Nc3cc(OCCN)c4ccccc4n3)nc(C(=O)Nc3cc(OCCN)c4ccccc4n3)c2)nn1 | c-myc G-quadruplex DNA | FRET melting |  | 1 µM, pH 7.4, together with: 60 mM potassium |  | ΔTm | 5.7 ± 0.4 K |
| O=C(N/N=C/c1cc[n+](Cc2ccccc2)c2ccccc12)N/N=C/c1cc[n+](Cc2ccccc2)c2ccccc12 | telomeric G4 DNA hybrid-2 | FRET melting |  | 1 µM, DNA 0.2 µM, together with: duplex DNA competitor 10 µM |  | ΔTm | 10 ± 0.7 °C |
| Fc1ccc(Nc2nc(NC3CCCCC3)c3ccccc3n2)cc1F | β2AR/β1AR TM6 chimera | β-arrestin2 recruitment, antagonist, BRET |  | together with: isoprenaline 1 µM |  | pIC50 | 5.9 |
